Experimental data collected from several papers.
A part holds a random share of what one study measured. Positions count from the first letter of the parent shown.

Study 1 — target: CCND1, cyclin fold, Cln2 fusion (human); method: yeast growth competition, sequencing; matrix: yeast; notes: weak parent motif; baseline: not given; reading: higher = stronger binding; measurement: normalised enrichment score
Starting sequence: E2F1 docking peptide (human); PPVKRRLDLETDH; partner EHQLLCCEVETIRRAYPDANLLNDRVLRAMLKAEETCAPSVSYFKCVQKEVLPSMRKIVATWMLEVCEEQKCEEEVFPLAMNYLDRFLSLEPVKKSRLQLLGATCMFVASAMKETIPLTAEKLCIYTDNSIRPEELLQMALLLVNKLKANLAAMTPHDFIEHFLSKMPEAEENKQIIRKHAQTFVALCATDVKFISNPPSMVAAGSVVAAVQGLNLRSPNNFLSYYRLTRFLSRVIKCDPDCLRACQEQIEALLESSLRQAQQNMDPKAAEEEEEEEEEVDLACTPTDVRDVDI
PPVKRILDLETDH [R6I]: 0.364
PPLKRRLDLETDH [V3L]: 0.384
PPVKDRLDLETDH [R5D]: 0.382
PPVKKRLDLETDH [R5K]: 0.103
PPAKRRLDLETDH [V3A]: 0.879
PPVKRCLDLETDH [R6C]: 0.495
PPVKRRLDLGTDH [E10G]: 0.863
PPVKRRLDLETDL [H13L]: 0.624
PPVKRRRDLETDH [L7R]: -0.278
PPVKRRLDLEWDH [T11W]: 0.673
PPVCRRLDLETDH [K4C]: 1.86
PPVKRRLDLETAH [D12A]: 0.759
PPVKRHLDLETDH [R6H]: 0.499
PPVKERLDLETDH [R5E]: 0.893
PPVKRRVDLETDH [L7V]: 0.101
PPVKWRLDLETDH [R5W]: 0.38
IPVKRRLDLETDH [P1I]: 0.67
PPVKRRLDLEVDH [T11V]: 0.375
PPSKRRLDLETDH [V3S]: 0.306
PSVKRRLDLETDH [P2S]: 0.604
PPVKRRLDLENDH [T11N]: 0.46

Study 2 — method: protein binding microarray; molecule type: double-stranded DNA, one strand shown; matrix: in vitro; tested at: not given; baseline: not given; reading: higher = stronger binding; measurement: E-score
Target: Histone acetyltransferase KAT6A, winged helix 2, GST fusion (KAT6A, Homo sapiens, UniProt Q92794, residues 85-181)
Notes: 8-mer, flanks averaged, mean of 2 arrays, mostly near background
Construct (chain): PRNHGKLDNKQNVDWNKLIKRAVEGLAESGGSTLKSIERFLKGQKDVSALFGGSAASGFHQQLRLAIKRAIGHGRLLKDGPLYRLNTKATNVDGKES
AGGCCACC: -0.0265
ATGGCGTA: -0.0888
TGAGGGCA: 0.0273
CACGGTAA: -0.0962
CCCTTCTC: -0.0412
GGGCTAGA: -0.0781
GGGATTCA: -0.0866
AGGATAAC: -0.23
CCGACGCC: 0.0106
GGCCACTA: -0.0596
TCAGTCAA: -0.0879
GGGCAACC: 0.152
GTGCATAA: 0.141
CCAGGACC: 0.146
CCCTGCAG: 0.0644
CATTCTAC: -0.118
GCTTGTGA: -0.0847
AAACATGG: -0.0656
AGGGACCT: 0.0285
AGGTTACA: -0.152
CCTCGGCC: 0.234
ACAGCCCT: -0.168
AGCTAAAA: 0.0214
CACGGCAA: -0.045
AGAACGCG: 0.0918

Study 3 — method: DHFR PCA, deep sequencing; matrix: yeast; with: (+)-ABA 4.8 µM; baseline: wild-type fitted maximum; reading: higher = stronger binding; measurement: relative binding score
Target: ABI1, truncated, D143A, DHFR fusion (Arabidopsis thaliana)
Notes: methotrexate growth selection, single substitutions
Starting sequence: PYL1, truncated, DHFR fusion (Arabidopsis thaliana); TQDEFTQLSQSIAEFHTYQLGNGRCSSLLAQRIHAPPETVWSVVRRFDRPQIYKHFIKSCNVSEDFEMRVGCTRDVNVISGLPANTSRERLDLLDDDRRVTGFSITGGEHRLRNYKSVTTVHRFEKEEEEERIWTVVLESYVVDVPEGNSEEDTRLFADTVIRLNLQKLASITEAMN
Y53T: 4.41%
T101F: 86.3%
D48V: -0.181%
L29G: -2.86%
S171C: 73.6%
T135Y: 0.915%
L94T: -5.4%
R24S: 54.3%
E64V: 60.7%
E129S: 81.6%
G148L: 8.88%
G107P: -4.69%
D65A: 60.8%
S59L: 10.8%
K126C: 91.4%
F5D: 47.4%
L138V: 24%

Study 4 — method: protein-binding microarray; molecule type: double-stranded DNA, one strand shown; matrix: in vitro; tested at: 2540 nM top; notes: 60-bp whole probe; with: salmon DNA 0.4 mg/ml; baseline: random background probes; reading: higher = stronger binding; measurement: fitted relative affinity; all sequences stand within: GCCTAGCAC … GTCTTGATTCGCTTGACGCTGCTG
Target: Interferon regulatory factor 3, full length, phosphomimetic (IRF3, Homo sapiens, UniProt Q14653, residues 1-427, S386D/S396D/S398D/S402D/T404D/S405D)
Sequence of UniProt Q14653 (whole entry, unmodified, looked up): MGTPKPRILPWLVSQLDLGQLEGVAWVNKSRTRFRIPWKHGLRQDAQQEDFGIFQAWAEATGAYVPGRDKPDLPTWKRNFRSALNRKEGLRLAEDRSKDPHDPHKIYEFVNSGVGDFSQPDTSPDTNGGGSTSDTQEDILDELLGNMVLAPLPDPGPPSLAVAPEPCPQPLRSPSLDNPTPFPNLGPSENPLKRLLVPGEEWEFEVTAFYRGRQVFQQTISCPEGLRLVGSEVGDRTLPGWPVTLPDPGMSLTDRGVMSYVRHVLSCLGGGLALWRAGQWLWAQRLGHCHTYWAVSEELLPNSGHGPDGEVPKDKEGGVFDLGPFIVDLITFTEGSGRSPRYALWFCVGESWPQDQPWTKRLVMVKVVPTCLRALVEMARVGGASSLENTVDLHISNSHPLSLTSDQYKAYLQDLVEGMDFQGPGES
TAGGGACTCAGGTCTCCCTTGGTGCTA: -0.54 z-score
TTAGGTCACGGACTGGGTTAGTGCTAG: -0.772 z-score
TTAGATATCAGTCTGGATTAGTGCTAG: 0.208 z-score
TTAGGTTTCGCTTTCGGTTAGTGCTAG: 9.44 z-score
GACGGACTGTTACTGCTGACGTGCTAG: -0.366 z-score
GACGGTCTCCTTATCTTGACGTGCTAG: 2.36 z-score
TCAATCTTCATTGTCATACTGTGCTAG: 0.76 z-score
TTAGGTTTCTGTTCCGGTTAGTGCTAG: 6.9 z-score
GTAGGTATCCTACTGCTTTAGTGCTAG: 2.58 z-score
TCTCCTCCAGGTTCTCTGACAGTGCTA: 0.131 z-score
GACGATTTAGGGACTGGAGACGTGCTA: 0.153 z-score
TCAACTCAGCACTTTGGCACTGTGCTA: -0.293 z-score
TCAATTTTCTAAATTCCACTGTGCTAG: 1.09 z-score
TTAAGTTTCCTTCTCCTTTAGTGCTAG: 11.4 z-score
GACGATATCGGGTATGGAGACGTGCTA: 0.0414 z-score
AAATTTTGATGAACTTAAGCGTGCTAG: -0.204 z-score
TCATTATTCTAGCCTCCAACTGTGCTA: 0.692 z-score
TTAGGTATCGGACCGGGTTAGTGCTAG: 0.672 z-score
TTAGGACTGAACTTTCGGTTAGTGCTA: 1.67 z-score
AGATTTTTTTTCCTAATTGAGTGCTAG: 2.6 z-score
AGTATTACCTCATCTTTCCCTGTGCTA: 0.924 z-score

Study 5 — method: RNA Bind-n-Seq; molecule type: RNA; matrix: in vitro; tested at: 200 nM; notes: whole 134-nt RNA, ends assumed; with: 150 mM KCl; baseline: input library; reading: higher = stronger binding; measurement: log2 enrichment
Target: Ras GTPase-activating protein-binding protein 1, full length (G3BP1, Homo sapiens, UniProt Q13283)
Sequence of UniProt Q13283 (whole entry, looked up): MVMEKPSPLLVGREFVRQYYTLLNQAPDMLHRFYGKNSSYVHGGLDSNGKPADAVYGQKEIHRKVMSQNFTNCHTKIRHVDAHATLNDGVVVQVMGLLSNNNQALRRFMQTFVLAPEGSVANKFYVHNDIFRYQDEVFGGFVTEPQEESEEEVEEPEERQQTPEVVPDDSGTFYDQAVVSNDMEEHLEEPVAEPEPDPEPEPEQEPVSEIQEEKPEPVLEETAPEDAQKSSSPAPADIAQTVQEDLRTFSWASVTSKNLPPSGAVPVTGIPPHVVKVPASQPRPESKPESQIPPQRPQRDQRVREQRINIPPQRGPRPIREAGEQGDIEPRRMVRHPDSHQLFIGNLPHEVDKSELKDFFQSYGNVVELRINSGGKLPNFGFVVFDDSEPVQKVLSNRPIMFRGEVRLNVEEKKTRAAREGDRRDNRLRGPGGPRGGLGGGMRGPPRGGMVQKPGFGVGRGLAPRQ
All sequences stand within: GGGAGUUCUACAGUCCGACGAUC … UGGAAUUCUCGGGUGUCAAGG
AGUCCUGUGCUACACAUCGUAUGUACCGAAUCGGGAAAAAGGAAAAAGGAAAAAGGGGAAAGUAUUAUGUUACGCCGUUCGGAUCUGCAC: -0.602
UGUGCUACACAUCGUAUGUACCGAAUCGGGGUUUUUUUGGGGUUUUUUUGGGGUUUUUUUGGAAAGUAUUAUGUUACGCCGUUCGGAUCU: -0.429
GGAAGGGGGCUUGCGCCACGGCAGUGAAUCUUCAUGGAUCUUCAUGCAGCCAUACAAACCCUGGUUCCAACAGAAUGGUGAAUUUUCGAC: -1.37
UGUGCUACACAUCGUAUGUACCGAAUCGGGGUUUUUUUGGGGUUUUUUUGGGGAAAAAGGGGAAAGUAUUAUGUUACGCCGUUCGGAUCU: -0.502
UCCUGUGCUACACAUCGUAUGUACCGAAUCAAAUUUUUUUAAACCCAAACCCCCCCAAAAAAGUAUUAUGUUACGCCGUUCGGAUCUGCA: -0.0507
AGUCCUGUGCUACACAUCGUAUGUACCGAAUCGGGGAAAAAAAGGGGAGGGGAGGGGAAAGUAUUAUGUUACGCCGUUCGGAUCUGCACU: 0.668
UCAAGUCCUGUGCUACACAUCGUAUGUACCGAAUCGGAAAGGUUUUUGGUUUGGAAAGUAUUAUGUUACGCCGUUCGGAUCUGCACUUCC: -1.17
UGGCCCUGGUGGCAUGCGGGGAGGAAGAGGUGGCCUCAUGGAUCGUGGUGGUCCCGGUGGAAUGUUCAGAGGUGGCCGAGGUGGAGACAG: 0.0624
UGGCCCUGGUGGCAUGCGGGGAGGAAGAGGUGGCCUCAUGGAUCGUGGUGGUCCCGGUGGAAUGUUCAUAGGUGGCCGUGGUGGAGACAG: 0.132
UCCUGUGCUACACAUCGUAUGUACCGAAUCGGGCCCCCGGGCCCCCGGGGCCCCCGGGGAAAGUAUUAUGUUACGCCGUUCGGAUCUGCA: -1.02
UCCUCAAGUCCUGUGCUACACAUCGUAUGUACCGAAUCGGCGGCGGGCGGGGAAAGUAUUAUGUUACGCCGUUCGGAUCUGCACUUCCAG: 0.365
UAACUUUAGAGGAGGAUCUGAUGGAUAUGGCAGUGGACGUGGAUUUGGGGAUGGCUAUAAUGAGUAUGGAGGAGGACCUGGAGGUGGCAA: 0.484
CAAGUCCUGUGCUACACAUCGUAUGUACCGAAUCGGGCCCGGGGCCCGGCCCGGGAAAGUAUUAUGUUACGCCGUUCGGAUCUGCACUUC: -0.904
UCUAACUAAUUUUUCUUUGUUUUUUAACAGGAGAGGAGAUACUUACCCUUAAGUCAAGCCAGAAAAAGUGGUUUCCAAAUGGAUUGGCUG: -0.931
